Published values of several laboratories.
Each line is one published result; not all experiments were run side by side.

SMILES	cell line	test	conditions	CC50 [µM]
Clc1ccc(-c2nn3c(Cn4cnc5ccccc54)nnc3s2)c(Cl)c1	HEp-2	cytotoxicity		83.3
CC[C@H](C)[C@H](NC(=O)[C@H](CCCCN)NC(=O)[C@H](CC(C)C)NC(=O)[C@H](CCSC)NC(=O)[C@H](CO)NC(=O)[C@H](C)NC(=O)CNC(=O)[C@H](CCCCN)NC(=O)[C@H](CCCCN)NC(=O)[C@H](CC(N)=O)NC(=O)CNC(=O)[C@H](CCCCN)NC(=O)[C@H](CC(C)C)NC(=O)[C@H](CCCNC(=N)N)NC(=O)[C@@H](NC(=O)[C@H](CC(C)C)NC(=O)[C@H](Cc1ccc(O)cc1)NC(=O)[C@H](CCCCN)NC(=O)[C@H](C)NC(=O)[C@H](CCCCN)NC(=O)[C@@H]1CCCN1C(=O)[C@H](CCCCN)NC(=O)CNC(=O)[C@H](CCCNC(=N)N)NC(=O)[C@H](CC(C)C)NC(=O)[C@H](CCC(N)=O)NC(=O)[C@@H](N)Cc1ccccc1)C(C)C)C(=O)N[C@@H](CC(C)C)C(=O)N[C@@H](C)C(=O)N[C@H](C(=O)N[C@H](C(=O)N[C@@H](CCCNC(=N)N)C(=O)N1CCC[C@H]1C(=O)N[C@H](C(=O)N[C@@H](CCCCN)C(=O)N[C@@H](CCC(N)=O)C(=O)N[C@@H](CO)C(=O)N[C@@H](Cc1ccccc1)C(=O)N1CCC[C@H]1C(=O)N[C@@H](CO)C(=O)N[C@@H](CC(C)C)C(=O)N1CCC[C@H]1C(=O)O)[C@@H](C)O)[C@@H](C)O)[C@@H](C)O	THP-1, PMA-differentiated	cell viability, MTT		64.6
CC(C)C[C@H](NC(=O)OCc1ccccc1)C(=O)N[C@@H](CC(C)C)C(=O)N[C@@H](CC1CCNC1=O)C(=O)C(=O)NC1CC1 (stereo partly drawn)	Huh-7		5 (unit not given)	> 250
c1ccc2oc(-c3nn4c(Cn5cnc6ccccc65)nnc4s3)cc2c1	HEp-2	cytotoxicity		> 100
O=C(Nc1ccc(Oc2ccc(Cl)cc2)c(Cl)c1)c1cc(I)cc(I)c1O	LMH chicken hepatoma cells			164
CC[C@H](C)[C@H](NC(=O)[C@H](CCCCN)NC(=O)[C@H](CCCNC(=N)N)NC(=O)[C@H](CCC(N)=O)NC(=O)[C@H](CCCNC(=N)N)NC(=O)CNC(=O)[C@H](Cc1ccccc1)NC(=O)[C@H](CCCNC(=N)N)NC(=O)[C@H](CCCNC(=N)N)NC(=O)[C@H](Cc1ccccc1)NC(=O)[C@H](CC(C)C)NC(=O)[C@@H]1CCCN1C(=O)[C@@H](NC(=O)[C@H](CC(N)=O)NC(=O)[C@@H](NC(=O)[C@@H](NC(=O)[C@H](CO)NC(=O)[C@H](CC(N)=O)NC(=O)[C@H](CCCNC(=N)N)NC(=O)[C@@H]1CCCN1C(=O)[C@@H](NC(=O)[C@@H]1CCCN1C(=O)[C@@H](N)Cc1ccccc1)[C@@H](C)CC)[C@@H](C)O)C(C)C)[C@@H](C)CC)C(=O)NCC(=O)NCC(=O)N[C@@H](CCCNC(=N)N)C(=O)NCC(=O)N[C@@H](CCCNC(=N)N)C(=O)N[C@H](C(=O)N[C@H](C(=O)N[C@@H](CO)C(=O)N1CCC[C@H]1C(=O)N[C@@H](Cc1ccc(O)cc1)C(=O)N[C@@H](CCCNC(=N)N)C(=O)N[C@H](C(=O)N1CCC[C@H]1C(=O)N[C@H](C(=O)N[C@@H](CC(C)C)C(=O)N[C@@H](CCCNC(=N)N)C(=O)N[C@@H](CCCNC(=N)N)C(=O)N[C@@H](Cc1c[nH]cn1)C(=O)N[C@@H](CCCNC(=N)N)C(=O)N[C@@H](Cc1ccc(O)cc1)C(=O)N[C@@H](CO)C(=O)N[C@H](C(=O)N[C@@H](Cc1ccccc1)C(=O)N[C@@H](CCCNC(=N)N)C(=O)O)[C@@H](C)CC)C(C)C)[C@@H](C)O)[C@@H](C)CC)[C@@H](C)CC	THP-1, PMA-differentiated	cell viability, MTT		24.6
CCOc1ccccc1-c1nn2c(Cn3c(-c4ccccn4)nc4ccccc43)nnc2s1	HEp-2	cytotoxicity		1.3
Nc1ncnc2c1ccn2[C@@]12C[C@H]1[C@H](CO)[C@@H](O)[C@H]2O	monkey cell line	visual		> 100
COc1cccc(-c2nn3c(Cn4cnc5ccccc54)nnc3s2)c1	HEp-2	cytotoxicity		11.1
CCOc1ccc2cc(C(=O)Nc3nc4ccccc4[nH]3)[nH]c2c1	293T or HeLa	CellTiter-Glo	72 h	> 10
CC[C@H](C)[C@H](NC(=O)[C@H](CCCNC(=N)N)NC(=O)[C@@H](NC(=O)[C@H](CC(C)C)NC(=O)[C@H](Cc1c[nH]c2ccccc12)NC(=O)[C@H](Cc1ccc(O)cc1)NC(=O)[C@@H](NC(=O)[C@H](CO)NC(=O)[C@@H](NC(=O)[C@H](CCCNC(=N)N)NC(=O)[C@H](CCC(N)=O)NC(=O)[C@H](CCCNC(=N)N)NC(=O)[C@@H]1CCCN1C(=O)[C@H](CC(C)C)NC(=O)[C@H](CO)NC(=O)[C@@H](NC(=O)[C@H](CC(C)C)NC(=O)[C@@H]1CCCN1C(=O)[C@H](CCC(N)=O)NC(=O)[C@H](CCCCN)NC(=O)[C@H](Cc1c[nH]cn1)NC(=O)[C@H](CS)NC(=O)[C@H](CCCNC(=N)N)NC(=O)[C@H](CCCCN)NC(=O)[C@H](CO)NC(=O)[C@H](CC(C)C)NC(=O)[C@H](CO)NC(=O)[C@H](Cc1ccccc1)NC(=O)[C@H](CC(C)C)NC(=O)[C@H](CCCCN)NC(=O)[C@H](Cc1c[nH]cn1)NC(=O)[C@@H](NC(=O)[C@@H](NC(=O)[C@H](CCCCN)NC(=O)[C@H](CCC(N)=O)NC(=O)[C@H](C)NC(=O)[C@H](CCCCN)NC(=O)[C@H](CC(C)C)NC(=O)[C@H](Cc1ccccc1)NC(=O)[C@@H](N)CC(C)C)[C@@H](C)CC)C(C)C)[C@@H](C)CC)[C@@H](C)O)[C@@H](C)O)[C@@H](C)O)C(=O)O	THP-1, PMA-differentiated	cell viability, MTT		20.1
CN(C)c1ccc(N(Cc2cc(Cl)cs2)C(=O)Cc2cncc3ccccc23)cc1	Calu-3		48 h	53.7
CC(C)(C)[C@H](NC(=O)C(F)(F)F)C(=O)N1C[C@H]2[C@@H]([C@H]1C(=O)N[C@H](C#N)C[C@@H]1CCNC1=O)C2(C)C	CEM			> 100
CC[C@H](C)[C@H](NC(=O)[C@H](CCC(N)=O)NC(=O)[C@H](CCCCN)NC(=O)[C@H](CCSC)NC(=O)[C@H](CO)NC(=O)[C@H](CCC(=O)O)NC(=O)[C@H](CCC(N)=O)NC(=O)[C@@H]1CCCN1C(=O)[C@H](CS)NC(=O)[C@@H](NC(=O)[C@H](CCCCN)NC(=O)[C@@H](NC(=O)CNC(=O)[C@@H](NC(=O)[C@@H]1CCCN1C(=O)[C@H](Cc1ccccc1)NC(=O)[C@H](Cc1ccccc1)NC(=O)[C@H](C)NC(=O)[C@H](CO)NC(=O)[C@H](CCCNC(=N)N)NC(=O)[C@H](CCCCN)NC(=O)[C@@H](NC(=O)[C@H](CCCNC(=N)N)NC(=O)[C@H](Cc1c[nH]cn1)NC(=O)[C@H](CCCCN)NC(=O)[C@H](C)NC(=O)[C@H](CC(C)C)NC(=O)[C@H](CC(=O)O)NC(=O)[C@H](Cc1ccccc1)NC(=O)[C@@H](NC(=O)[C@H](CCCNC(=N)N)NC(=O)[C@H](CCCNC(=N)N)NC(=O)[C@H](CCSC)NC(=O)[C@@H](NC(=O)[C@H](CO)NC(=O)[C@H](CCSC)NC(=O)[C@H](CCCCN)NC(=O)[C@H](Cc1ccc(O)cc1)NC(=O)[C@H](CCSC)NC(=O)[C@@H](N)CCCCN)[C@@H](C)O)[C@@H](C)CC)[C@@H](C)O)[C@@H](C)O)C(C)C)C(C)C)C(=O)N[C@@H](CC(C)C)C(=O)O	THP-1, PMA-differentiated	cell viability, MTT		41.7
Cc1ccc(-c2nn3c(Cn4c(-c5ccccn5)nc5ccccc54)nnc3s2)cc1C	HEp-2	cytotoxicity		> 100
Cc1cc(COc2ccc([C@]3(N)CCN([C@H](CC(C)C)C(=O)NO)C3=O)cc2)c2ccccc2n1	293T or HeLa	CellTiter-Glo	72 h	> 10
CC[C@H](C)[C@H](NC(=O)[C@H](CCSC)NC(=O)[C@H](Cc1c[nH]cn1)NC(=O)[C@@H](NC(=O)[C@H](CC(C)C)NC(=O)[C@H](CO)NC(=O)[C@H](CO)NC(=O)[C@H](CCCCN)NC(=O)[C@H](Cc1ccc(O)cc1)NC(=O)[C@H](CCCCN)NC(=O)[C@H](CC(N)=O)NC(=O)[C@H](CO)NC(=O)[C@H](CCCCN)NC(=O)[C@H](CC(C)C)NC(=O)[C@@H](NC(=O)[C@H](CC(C)C)NC(=O)[C@H](CC(C)C)NC(=O)[C@H](CCSC)NC(=O)[C@H](CCCNC(=N)N)NC(=O)[C@H](CCCCN)NC(=O)[C@H](CCCNC(=N)N)NC(=O)[C@@H](N)Cc1c[nH]c2ccccc12)[C@@H](C)O)C(C)C)C(=O)N[C@@H](CC(C)C)C(=O)NCC(=O)N[C@@H](CC(C)C)C(=O)N[C@@H](CO)C(=O)N[C@@H](CC(C)C)C(=O)N[C@@H](CCC(N)=O)C(=O)N[C@H](C(=O)N[C@@H](CS)C(=O)N[C@@H](CC(C)C)C(=O)N[C@H](C(=O)N[C@@H](CCCCN)C(=O)O)[C@@H](C)O)[C@@H](C)CC	THP-1, PMA-differentiated	cell viability, MTT		265
CC(C)C[C@H](NC(=O)OCc1ccccc1)C(=O)N[C@H](C=O)C[C@@H]1CCCNC1=O	Calu-3	cytotoxicity		> 100

Some of these lines once more:
SMILES	cell line	test	conditions	CC50 [µM]
CC[C@H](C)[C@H](NC(=O)[C@H](CCCCN)NC(=O)[C@H](CCCNC(=N)N)NC(=O)[C@H](CCC(N)=O)NC(=O)[C@H](CCCNC(=N)N)NC(=O)CNC(=O)[C@H](Cc1ccccc1)NC(=O)[C@H](CCCNC(=N)N)NC(=O)[C@H](CCCNC(=N)N)NC(=O)[C@H](Cc1ccccc1)NC(=O)[C@H](CC(C)C)NC(=O)[C@@H]1CCCN1C(=O)[C@@H](NC(=O)[C@H](CC(N)=O)NC(=O)[C@@H](NC(=O)[C@@H](NC(=O)[C@H](CO)NC(=O)[C@H](CC(N)=O)NC(=O)[C@H](CCCNC(=N)N)NC(=O)[C@@H]1CCCN1C(=O)[C@@H](NC(=O)[C@@H]1CCCN1C(=O)[C@@H](N)Cc1ccccc1)[C@@H](C)CC)[C@@H](C)O)C(C)C)[C@@H](C)CC)C(=O)NCC(=O)NCC(=O)N[C@@H](CCCNC(=N)N)C(=O)NCC(=O)N[C@@H](CCCNC(=N)N)C(=O)N[C@H](C(=O)N[C@H](C(=O)N[C@@H](CO)C(=O)N1CCC[C@H]1C(=O)N[C@@H](Cc1ccc(O)cc1)C(=O)N[C@@H](CCCNC(=N)N)C(=O)N[C@H](C(=O)N1CCC[C@H]1C(=O)N[C@H](C(=O)N[C@@H](CC(C)C)C(=O)N[C@@H](CCCNC(=N)N)C(=O)N[C@@H](CCCNC(=N)N)C(=O)N[C@@H](Cc1c[nH]cn1)C(=O)N[C@@H](CCCNC(=N)N)C(=O)N[C@@H](Cc1ccc(O)cc1)C(=O)N[C@@H](CO)C(=O)N[C@H](C(=O)N[C@@H](Cc1ccccc1)C(=O)N[C@@H](CCCNC(=N)N)C(=O)O)[C@@H](C)CC)C(C)C)[C@@H](C)O)[C@@H](C)CC)[C@@H](C)CC	THP-1, PMA-differentiated	cell viability, MTT		24.6
CC(C)C[C@H](NC(=O)OCc1ccccc1)C(=O)N[C@@H](CC(C)C)C(=O)N[C@@H](CC1CCNC1=O)C(=O)C(=O)NC1CC1 (stereo partly drawn)	Huh-7		5 (unit not given)	> 250
